Measurements from different studies.
Compare with care: the assays were run in different laboratories.

Structure (SMILES) | test | system | setting | measurement | value
CC[C@H](C)[C@H](NC(=O)[C@H](C)NC(=O)[C@H](CCCCN)NC(=O)[C@H](CC(C)C)NC(=O)[C@H](Cc1ccccc1)NC(=O)[C@@H](N)CC[Se]C)C(=O)N[C@@H](CCCCN)C(=O)N[C@@H](CCCCN)C(=O)N[C@@H](Cc1ccccc1)C(=O)NCC(=O)N[C@@H](CCCCN)C(=O)N[C@@H](CCC(=O)O)C(=O)N[C@@H](Cc1ccccc1)C(=O)N[C@@H](CCCCN)C(=O)N[C@@H](CCCCN)C(=O)N[C@H](C(=O)NCC(=O)N[C@@H](C)C(=O)N[C@@H](CCCCN)C(=O)N[C@@H](CC(C)C)C(=O)N[C@@H](CCCCN)C(=O)O)[C@@H](C)CC | measured: selenium | mouse, serum | intraperitoneal, 70 mg/kg, added: MBC 4 mg/L | time above MBC | 5.15 min
CC(C)C[C@@H]1NC(=O)[C@H](CO)NC(=O)[C@H](CC(=O)O)NC(=O)[C@H](C(C)C)NC(=O)[C@H](CC(=O)O)NC(=O)[C@H](C)NC(=O)[C@H](CO)NC(=O)[C@H](CCCNC(=N)N)NC(=O)[C@H](CO)NC(=O)[C@H](Cc2c[nH]cn2)NC(=O)[C@@H](N)CSSC[C@@H](C(=O)N2CCC[C@H]2C(=O)N[C@@H](CCC(=O)O)C(=O)N[C@@H](CCCCN)C(=O)N[C@@H](C)C(=O)N2CCC[C@H]2C(=O)N2CCC[C@H]2C(=O)N2CCC[C@H]2C(=O)N[C@@H](CCC(N)=O)C(=O)N[C@@H](CCCCN)C(=O)N2CCC[C@H]2C(=O)N[C@@H](CO)C(=O)N[C@@H](Cc2c[nH]cn2)C(=O)N[C@@H](CCC(=O)O)C(=O)NCC(=O)N[C@@H](CO)C(=O)N[C@@H](Cc2ccc(O)cc2)C(=O)N[C@@H](CC(C)C)C(=O)N[C@@H](CC(C)C)C(=O)N[C@@H](CCC(N)=O)C(=O)N2CCC[C@H]2C(=O)O)NC(=O)[C@@H]2CCCN2C(=O)CNC(=O)[C@@H]2CCCN2C(=O)[C@H](CO)NC(=O)[C@H](CO)NC(=O)[C@H](CC(N)=O)NC(=O)[C@@H]2CCCN2C(=O)[C@H](CO)NC(=O)[C@H](CO)NC(=O)[C@H](CCC(=O)O)NC(=O)[C@H](CO)NC1=O | ELISA | mouse, plasma | intravenous, 900 nmol/kg | time to return to baseline plasma level | ≤ 4 h
CCCCCC1=C(NCC)C(=O)C(C/C=C(\C)CCC=C(C)C)=C(O)C1=O |  | CD-1 mouse, plasma | oral, 50 mg/kg | time to return to baseline | 24 h
CCCCCCCC/C=C\CCCCCCCCOP(O)(O)=S.N |  | mouse | subcutaneous, 50 mg/kg | time to disappearance of toxic signs | ≤ 2 h
O=c1cc(-c2ccccc2)oc2c(Br)c(O)c(O)c(O)c12 |  | C57BL/6 mouse, plasma | oral, 250 mg/kg, enterohepatic recirculation | time of secondary peak | 12 h
CCN(CCCCOc1ccc(CCC(=O)N2CCC(Cc3ccccc3)CC2)cc1O[11CH3])Cc1ccccc1 | PET-CT | mouse, brain | intravenous | time to maximum brain uptake | ~2 min
C=Cc1c(C)c2cc3nc(c(CC(=O)O)c4[nH]c(cc5nc(cc1[nH]2)C(C)=C5CC)c(C)c4C(=O)O)[C@@H](CCC(=O)NCCCC[C@H](NC(C)=O)C(=O)N[C@@H](Cc1ccccc1)C(=O)N[C@@H](Cc1ccccc1)C(=O)N[C@H](C(=O)N[C@@H](CC(C)C)C(=O)N[C@@H](CCCCN)C(=O)N[C@@H](CO)C(=O)NCC(=O)N[C@@H](CCC(N)=O)C(=O)NCC(=O)N[C@@H](Cc1ccc(O)cc1)C(=O)N[C@@H](CCCNC(=N)N)C(=O)N[C@@H](Cc1c[nH]c2ccccc12)C(=O)N[C@@H](CC(=O)O)C(=O)N[C@@H](CO)C(=O)N[C@@H](Cc1ccc(O)cc1)C(=O)N[C@@H](CCCNC(=N)N)C(=O)N[C@@H](Cc1c[nH]c2ccccc12)C(=O)N[C@@H](Cc1c[nH]cn1)C(=O)N1CCC[C@H]1C(=O)N[C@@H](CO)C(=O)N[C@@H](CS)C(=O)N[C@@H](C)C(=O)N[C@@H](CS)C(=O)NCC(=O)NCC(=O)N[C@@H](CO)C(=O)N[C@@H](CCCCN)C(N)=O)C(C)C)[C@@H]3C | ex vivo fluorescence imaging | mouse, 4T1 tumour-bearing, tumour | intravenous, 13 mg/kg, single dose | time to peak fluorescence | 24 h
N=C(N)NCCC[C@H](NC(=O)[C@H](CCCNC(=N)N)NC(=O)[C@H](Cc1ccccc1)NC(=O)[C@H](Cc1c[nH]c2ccccc12)NC(=O)[C@H](Cc1c[nH]c2ccccc12)NC(=O)[C@H](Cc1ccccc1)NC(=O)[C@H](CCCNC(=N)N)NC(=O)[C@H](CCCNC(=N)N)NC(=O)[C@@H](N)Cc1ccccc1)C(=O)N[C@@H](Cc1ccccc1)C(N)=O |  | ICR mouse, female | intraperitoneal, 20 mg/kg | time to normal behaviour | ≤ 2 h
C=Cc1c(C)c2cc3nc(c(CC(=O)O)c4[nH]c(cc5nc(cc1[nH]2)C(C)=C5CC)c(C)c4C(=O)O)[C@@H](CCC(=O)NCCCC[C@H](NC(C)=O)C(=O)N[C@@H](Cc1ccccc1)C(=O)N[C@@H](Cc1ccccc1)C(=O)N[C@H](C(=O)N[C@@H](CC(C)C)C(=O)N[C@@H](CCCCN)C(=O)N[C@@H](CO)C(=O)NCC(=O)N[C@@H](CCC(N)=O)C(=O)N[C@@H](Cc1ccc(O)cc1)C(=O)N[C@@H](C)C(=O)N[C@@H](CO)C(=O)N[C@@H](Cc1ccc(O)cc1)C(=O)N[C@@H](Cc1c[nH]cn1)C(=O)N[C@@H](CS)C(=O)N[C@@H](Cc1c[nH]c2ccccc12)C(=O)N[C@@H](CS)C(=O)N[C@@H](Cc1c[nH]c2ccccc12)C(=O)N[C@@H](CCCNC(=N)N)C(=O)N[C@@H](CC(=O)O)C(=O)N1CCC[C@H]1C(=O)NCC(=O)N[C@@H](CCCNC(=N)N)C(=O)N[C@@H](CO)C(=O)NCC(=O)NCC(=O)N[C@@H](CO)C(=O)N[C@@H](CCCCN)C(N)=O)C(C)C)[C@@H]3C | ex vivo fluorescence imaging | mouse, 4T1 tumour-bearing, tumour | intravenous, 13 mg/kg, single dose | time to peak fluorescence | 24 h
Cc1ccccc1CN1CCC(O)(c2ccc(Cl)c(C(F)(F)F)c2)CC1 | LC-MS | BALB/c mouse, serum | intraperitoneal, 50 mg/kg | time of second peak concentration | 8 h
CC[C@H](C)[C@H](NC(=O)[C@H](C)NC(=O)[C@H](CCCCN)NC(=O)[C@H](CC(C)C)NC(=O)[C@@H](N)Cc1ccccc1)C(=O)N[C@@H](CCCCN)C(=O)N[C@@H](CCCCN)C(=O)N[C@@H](Cc1ccccc1)C(=O)NCC(=O)N[C@@H](CCCCN)C(=O)N[C@@H](CCC(=O)O)C(=O)N[C@@H](Cc1ccccc1)C(=O)N[C@@H](CCCCN)C(=O)N[C@@H](CCCCN)C(=O)N[C@H](C(=O)NCC(=O)N[C@@H](C)C(=O)N[C@@H](CCCCN)C(=O)N[C@@H](CC(C)C)C(=O)N[C@@H](CCCCN)C(=O)O)[C@@H](C)CC | measured: selenium | mouse, serum | intraperitoneal, 70 mg/kg, added: MBC 4 mg/L | time above MBC | 5.15 min

Repeated from above:
Structure (SMILES) | test | system | setting | measurement | value
C=Cc1c(C)c2cc3nc(c(CC(=O)O)c4[nH]c(cc5nc(cc1[nH]2)C(C)=C5CC)c(C)c4C(=O)O)[C@@H](CCC(=O)NCCCC[C@H](NC(C)=O)C(=O)N[C@@H](Cc1ccccc1)C(=O)N[C@@H](Cc1ccccc1)C(=O)N[C@H](C(=O)N[C@@H](CC(C)C)C(=O)N[C@@H](CCCCN)C(=O)N[C@@H](CO)C(=O)NCC(=O)N[C@@H](CCC(N)=O)C(=O)N[C@@H](Cc1ccc(O)cc1)C(=O)N[C@@H](C)C(=O)N[C@@H](CO)C(=O)N[C@@H](Cc1ccc(O)cc1)C(=O)N[C@@H](Cc1c[nH]cn1)C(=O)N[C@@H](CS)C(=O)N[C@@H](Cc1c[nH]c2ccccc12)C(=O)N[C@@H](CS)C(=O)N[C@@H](Cc1c[nH]c2ccccc12)C(=O)N[C@@H](CCCNC(=N)N)C(=O)N[C@@H](CC(=O)O)C(=O)N1CCC[C@H]1C(=O)NCC(=O)N[C@@H](CCCNC(=N)N)C(=O)N[C@@H](CO)C(=O)NCC(=O)NCC(=O)N[C@@H](CO)C(=O)N[C@@H](CCCCN)C(N)=O)C(C)C)[C@@H]3C | ex vivo fluorescence imaging | mouse, 4T1 tumour-bearing, tumour | intravenous, 13 mg/kg, single dose | time to peak fluorescence | 24 h
